Experimental data collected from several papers.
Each numbered part is a random draw from the data of one study; scales do not carry over between parts. Substitutions count along the parent as printed.

Block 1 — method: protein-binding microarray; form: double-stranded DNA, one strand shown; medium: in vitro; tested at: not given; reading: higher = stronger binding
Target: Protein C-ets-1 (ETS1, Homo sapiens, UniProt P14921, residues 1-441, K379A, full length assumed)
Setting: k-mer, scored over probes, only values ≥0.25
Target sequence (chain): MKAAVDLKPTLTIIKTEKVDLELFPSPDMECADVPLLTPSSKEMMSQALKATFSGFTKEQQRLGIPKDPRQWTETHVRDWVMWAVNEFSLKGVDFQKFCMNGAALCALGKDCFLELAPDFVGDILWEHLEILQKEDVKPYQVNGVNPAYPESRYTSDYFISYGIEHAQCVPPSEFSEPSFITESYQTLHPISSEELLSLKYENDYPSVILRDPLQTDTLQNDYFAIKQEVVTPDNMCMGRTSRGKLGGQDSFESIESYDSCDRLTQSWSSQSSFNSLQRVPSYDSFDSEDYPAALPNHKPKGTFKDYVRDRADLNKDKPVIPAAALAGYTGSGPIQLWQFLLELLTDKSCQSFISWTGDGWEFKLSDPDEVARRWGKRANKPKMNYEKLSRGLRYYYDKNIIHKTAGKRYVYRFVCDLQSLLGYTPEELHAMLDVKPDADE
Sequence | E-score
GGAATGTA | 0.273
ACCGCCCC | 0.295
GTCGGATA | 0.326
GACGTTGA | 0.283
ACAACGGA | 0.28
ACAGGTAA | 0.265
ACCGGCGG | 0.415
AATGGGTA | 0.282

Block 2 — method: protein-binding microarray; form: hairpin DNA; medium: in vitro; tested at: not given; relative to: not given; reading: higher = stronger binding; all sequences stand within: GAGGCCT … AGGCCTCACACTCTTTCCCTACACG
Target: Signal transducer and activator of transcription 1-alpha/beta, full length (STAT1, Homo sapiens, UniProt P42224, residues 1-750)
Sequence of UniProt P42224 (whole entry, looked up): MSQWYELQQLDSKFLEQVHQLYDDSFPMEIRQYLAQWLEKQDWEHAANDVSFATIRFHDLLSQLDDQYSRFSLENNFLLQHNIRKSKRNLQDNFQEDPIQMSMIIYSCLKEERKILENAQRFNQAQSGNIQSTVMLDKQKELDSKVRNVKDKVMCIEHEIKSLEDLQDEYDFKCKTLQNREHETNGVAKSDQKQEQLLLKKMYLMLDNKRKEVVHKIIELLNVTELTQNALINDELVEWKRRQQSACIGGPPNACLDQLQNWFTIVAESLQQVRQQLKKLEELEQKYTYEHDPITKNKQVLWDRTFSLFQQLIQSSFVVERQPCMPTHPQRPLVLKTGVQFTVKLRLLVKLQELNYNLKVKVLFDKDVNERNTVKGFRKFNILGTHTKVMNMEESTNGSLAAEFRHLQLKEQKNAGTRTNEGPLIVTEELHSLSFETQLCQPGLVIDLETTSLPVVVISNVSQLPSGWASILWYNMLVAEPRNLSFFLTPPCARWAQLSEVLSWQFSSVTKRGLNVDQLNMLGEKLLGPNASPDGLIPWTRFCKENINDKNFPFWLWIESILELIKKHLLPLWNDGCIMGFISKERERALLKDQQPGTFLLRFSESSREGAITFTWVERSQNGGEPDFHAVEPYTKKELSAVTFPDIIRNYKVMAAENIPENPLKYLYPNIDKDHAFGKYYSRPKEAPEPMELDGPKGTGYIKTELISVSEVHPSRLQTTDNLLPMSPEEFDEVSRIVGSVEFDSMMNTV
Setting: whole hairpin DNA, median over replicate spots
Sequence | median fluorescence [a.u.]
TACCCGGAAGCCTCCTGGCTTCCGGGTA | 3430
TTCGCGGAAGCCTCCTGGCTTCCGCGAA (5mC at 10 32) | 1360
CGCCCGGAAGCCTCCTGGCTTCCGGGCG (5mC at 8) | 1390
CCCCCGGAAGCCTCCTGGCTTCCGGGGG | 935
TTACCGGAAGCCTCCTGGCTTCCGGTAA | 4400
TTGCCGGAAGCCTCCTGGCTTCCGGCAA | 1170
TTCCCGGAAGCCTCCTGGCTTCCGGGAA (5mC at 10) | 12200
ATCCCGGAAGCCTCCTGGCTTCCGGGAT | 1930

Block 3 — Substance: PHB1 (Homo sapiens, UniProt P35232); method: cross-linking MS; medium: cell fractions
partner | conditions | cross-linked residues
SMCO1 (Homo sapiens, UniProt Q147U7) | added: DMTMM | E242 to K174
OCIAD1 (Homo sapiens, UniProt Q9NX40) | added: DSSO | K202 to K195
RAB10 (Homo sapiens, UniProt P61026) | added: DSSO | K202 to K136
PCDH1 (Homo sapiens, UniProt Q08174) | added: DMTMM | E215 to K367

Single results of other studies
Starting sequence: PafA, mature enzyme, eGFP fusion (Elizabethkingia meningoseptica, UniProt Q9KJX5); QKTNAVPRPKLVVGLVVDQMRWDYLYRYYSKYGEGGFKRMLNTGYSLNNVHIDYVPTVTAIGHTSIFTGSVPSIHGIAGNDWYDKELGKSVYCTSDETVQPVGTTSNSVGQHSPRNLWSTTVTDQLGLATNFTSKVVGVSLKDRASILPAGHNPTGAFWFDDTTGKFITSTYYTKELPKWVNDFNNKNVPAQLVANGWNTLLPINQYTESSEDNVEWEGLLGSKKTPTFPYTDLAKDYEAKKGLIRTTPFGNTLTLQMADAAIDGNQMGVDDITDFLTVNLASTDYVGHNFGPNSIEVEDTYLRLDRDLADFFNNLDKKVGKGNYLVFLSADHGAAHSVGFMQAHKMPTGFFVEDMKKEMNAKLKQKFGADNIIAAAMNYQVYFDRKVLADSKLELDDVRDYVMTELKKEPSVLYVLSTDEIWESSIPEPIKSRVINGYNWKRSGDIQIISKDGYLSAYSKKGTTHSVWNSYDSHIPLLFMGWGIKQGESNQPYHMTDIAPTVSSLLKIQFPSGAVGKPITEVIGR
Variant | target | assay | system | conditions | how to read | measurement | result
V399A | vanadate, free oxyanion | microfluidic competitive inhibition | in vitro, cell-free expressed | not given, derived from inhibition constants, unchanged parent 676 nM | lower = stronger binding | oxyanion analog dissociation constant | 813 nM

Excerpt of the above (block 1):
Sequence | E-score
GTCGGATA | 0.326
GACGTTGA | 0.283
ACAACGGA | 0.28
